{"data": "Measurements collected from several papers", "note": "Protocols differ between the studies behind these lines. ± marks the error that the study gave."}
{"SMILES": "O=C(NCC1OC2CCC=CCCC2O1)c1ccc(COCCOCCOCC[18F])cc1 (stereo not drawn)", "system": "healthy female BALB/c nude mice, large intestine", "conditions": "intravenous, 7.4 MBq per mouse, 60 min", "tissue uptake": "12.9 ± 0.2 %ID/g"}
{"SMILES": "O=C([O-])CN1CCN(CC(=O)[O-])CCN(CC(=O)NC[C@H]2CC[C@H](C(=O)N[C@H](Cc3cnc4ccccc4c3)C(=O)NCCCC[C@H](NC(=O)N[C@@H](CCC(=O)O)C(=O)O)C(=O)O)CC2)CCN(CC(=O)[O-])CC1.[64Cu+2]", "test": "ex vivo gamma counting", "system": "22Rv1 tumour-bearing mice, tumor", "conditions": "intravenous, 0.74 MBq, 1 h post-injection", "tissue uptake": "13.1 %ID/g"}
{"SMILES": "CC(C)C[C@H](NC(=O)[C@@H](CCCCNC(=O)[C@@H](Cc1ccccc1)NC(=O)CCCCCCCNC(=O)CN1CCN(CC(=O)O)CCN(CC(=O)O)CCN(CC(=O)O)CC1)NC(=O)[C@H](Cc1ccc(O)cc1)NC(=O)[C@H](CO)NC(=O)[C@H](Cc1c[nH]c2ccccc12)NC(=O)[C@H](Cc1c[nH]cn1)NC(=O)[C@@H]1CCC(=O)N1)C(=O)N[C@@H](CCCNC(=N)N)C(=O)N1CCC[C@H]1C(=O)NCC(N)=O [indium-111 labelled]", "test": "biodistribution", "system": "male athymic nude mice, DU-145 prostate cancer xenograft, stomach", "conditions": "intravenous, 0.037 MBq, 1 h post-injection", "tissue uptake": "0.61 ± 0.28 %ID/g"}
{"SMILES": "CCCC[C@H](NC(=O)CNC(=O)CNC(=O)[C@H](CCCCNC(=O)[C@H](CCN)NC(=O)C(C)c1ccc(CC(C)C)cc1)NC(=O)CN1CCN(CC(=O)O)CCN(CC(=O)O)CCN(CC(=O)O)CC1)C(=O)N[C@H]1CC(=O)NCCCC[C@@H](C(N)=O)NC(=O)[C@H](Cc2c[nH]c3ccccc23)NC(=O)[C@H](CCCNC(=N)N)NC(=O)[C@@H](Cc2ccccc2)NC(=O)[C@H](Cc2c[nH]cn2)NC1=O (stereo partly drawn) [lutetium-177 labelled]", "system": "C57 mice, tumour-bearing, tumor", "conditions": "2 h", "tissue uptake": "22.64 ± 0.16 %ID/g"}
{"SMILES": "N#C[C@@H]1CCCN1C(=O)CNC(=O)c1ccnc2ccc(OCCCN3CCN(C(=O)CCc4ccc5c(c4)CN4CCN6CC(=O)[O][68Ga-]([O]C(=O)C4)([O]5)[O]c4ccc(CCC(=O)N5CCN(CCCOc7ccc8nccc(C(=O)NCC(=O)N9CCC[C@H]9C#N)c8c7)CC5)cc4C6)CC3)cc12", "system": "BALB/c nude mice, U-87 MG xenograft, brain", "conditions": "2 h", "tissue uptake": "0.08 ± 0.01 %ID/g"}
{"SMILES": "CCCC[C@H](NC(=O)CCCCCCCNC(=O)CN1CCN(CC(=O)O)CCN(CC(=O)O)CC1)C(=O)N[C@H]1CC(=O)NCCCC[C@@H](C(N)=O)NC(=O)[C@H](Cc2c[nH]c3ccccc23)NC(=O)[C@H](CCCNC(=N)N)NC(=O)[C@@H](Cc2ccccc2)NC(=O)[C@H](Cc2c[nH]cn2)NC1=O [fluorine-18 labelled]", "system": "C57 mice B16-F10 melanoma, tumor", "conditions": "intravenous, 0.37 MBq, 2 h", "tissue uptake": "7.07 ± 0.95 %ID/g"}
{"SMILES": "N#C[C@@H]1CCCN1C(=O)CNC(=O)c1ccnc2ccc(OCCCN3CCN(C(=O)CCc4ccc5c(c4)CN4CCN(Cc6cc(CCC(=O)O)ccc6O)CC(=O)[O][Al-]([18F])([O]C(=O)C4)[O]5)CC3)cc12 (stereo partly drawn)", "system": "BALB/c nude mice, U-87 MG xenograft, brain", "conditions": "1 h", "tissue uptake": "0.08 ± 0.01 %ID/g"}
{"SMILES": "COc1ccc2c(c1)C(C)(C)C(/C=C/C1=C(Oc3ccc(C(=O)NCCCCOc4cc(CN(Cc5ccccn5)Cc5ccccn5)cc(CN(Cc5ccccn5)Cc5ccccn5)c4)cc3)C(=C/C=C3/N(CCCCS(=O)(=O)[O-])c4ccc(OC)cc4C3(C)C)CCC1)=[N+]2CCCCS(=O)(=O)[O-].O=[N+]([O-])[O-].O=[N+]([O-])[O-].[99Tc+].[C-]#[O+].[C-]#[O+].[C-]#[O+].[Zn+2]", "system": "BALB/c mice, S. aureus myositis, kidneys", "conditions": "12 h post-injection", "tissue uptake": "2.98 %ID/g"}
{"SMILES": "O=C(NCC1OC2CCC=CCCC2O1)c1ccc([18F])nc1 (stereo not drawn)", "system": "female BALB/c nude mice, LS174T tumour, bone", "conditions": "intravenous, 60 min, together with: unmodified CC49 24 h before", "tissue uptake": "0.9 ± 0.3 %ID/g"}
{"SMILES": "CCCC[C@H](NC(=O)COCCOCCNC(=O)CN1CCN(CC(=O)O)CCN(CC(=O)O)CC1)C(=O)N[C@H]1CC(=O)NCCCC[C@@H](C(N)=O)NC(=O)[C@H](Cc2c[nH]c3ccccc23)NC(=O)[C@H](CCCNC(=N)N)NC(=O)[C@@H](Cc2ccccc2)NC(=O)[C@H](Cc2c[nH]cn2)NC1=O [fluorine-18 labelled]", "system": "C57 mice B16-F10 melanoma, muscle", "conditions": "intravenous, 0.37 MBq, 0.5 h", "tissue uptake": "0.55 ± 0.13 %ID/g"}
{"SMILES": "CCCC[C@H](NC(=O)CNC(=O)CNC(=O)[C@H](CCCCNC(=O)C(C)c1ccc(CC(C)C)cc1)NC(=O)CN1CCN(CC(=O)O)CCN(CC(=O)O)CCN(CC(=O)O)CC1)C(=O)N[C@H]1CC(=O)NCCCC[C@@H](C(N)=O)NC(=O)[C@H](Cc2c[nH]c3ccccc23)NC(=O)[C@H](CCCNC(=N)N)NC(=O)[C@@H](Cc2ccccc2)NC(=O)[C@H](Cc2c[nH]cn2)NC1=O (stereo partly drawn) [lutetium-177 labelled]", "system": "C57 mice, tumour-bearing, skin", "conditions": "2 h", "tissue uptake": "1.35 ± 0.25 %ID/g"}
{"SMILES": "O=C(O)CCCOc1ccc([18F])cc1-c1cc(-c2ccccc2C(F)(F)F)n(-c2ccccc2)n1", "system": "mice, large intestine", "conditions": "intravenous, 180 min", "tissue uptake": "2.62 ± 0.49 %ID/g"}
{"SMILES": "N#C[C@@H]1CCCN1C(=O)CNC(=O)c1ccnc2ccc(OCCCN3CCN(C(=O)CCc4ccc(O)c(CN5CCN6CC(=O)[O][Al-]([18F])([O]C(=O)C5)[O]c5ccc(CCC(=O)N7CCN(CCCOc8ccc9nccc(C(=O)NCC(=O)N%10CCC[C@H]%10C#N)c9c8)CC7)cc5C6)c4)CC3)cc12 (stereo partly drawn)", "system": "BALB/c nude mice, U-87 MG xenograft, bone", "conditions": "1 h, blocking, together with: DOTA-FAPI-04 40 nmol/mouse co-injected", "tissue uptake": "12.5 ± 4.44 %ID/g"}
{"SMILES": "O=C([O-])CN1CCN(CC(=O)O)CCN(CC(=O)[O-])CCN(CC(=O)NCC2CCC(C(=O)NC(Cc3ccc4ccccc4c3)C(=O)NCCCCC(NC(=O)NC(CCC(=O)O)C(=O)O)C(=O)O)CC2)CC1.[212Pb+2] (stereo not drawn)", "system": "athymic mice, C4-2 prostate cancer xenograft, salivary gland", "conditions": "intravenous, 2 h, 212Pb-labelled", "tissue uptake": "not detected"}
{"SMILES": "Cc1cc(C)n(CCN(CCN)CCCCCCNC(=O)[C@@H](N)Cc2c[nH]cn2)n1.[99Tc+].[C-]#[O+].[C-]#[O+].[C-]#[O+]", "system": "BALB/c nude mice A549 xenograft, intestine", "conditions": "intravenous, 15 min", "tissue uptake": "11.4 ± 2.1 %ID/g"}
{"SMILES": "COc1ccc(Nc2nc(Nc3ccc(OCCOCC[18F])cc3)ncc2Br)cc1", "system": "ICR mice, S180 tumour-bearing, heart", "conditions": "intravenous, 370 kBq, 5 min", "tissue uptake": "2.37 ± 0.15 %ID/g"}
{"SMILES": "CCCC[C@H](NC(=O)CNC(=O)CNC(=O)[C@H](CCCCNC(=O)[C@H](CC(=O)O)NC(=O)C(C)c1ccc(CC(C)C)cc1)NC(=O)CN1CCN(CC(=O)O)CCN(CC(=O)O)CCN(CC(=O)O)CC1)C(=O)N[C@H]1CC(=O)NCCCC[C@@H](C(N)=O)NC(=O)[C@H](Cc2c[nH]c3ccccc23)NC(=O)[C@H](CCCNC(=N)N)NC(=O)[C@@H](Cc2ccccc2)NC(=O)[C@H](Cc2c[nH]cn2)NC1=O (stereo partly drawn) [lutetium-177 labelled]", "system": "C57 mice, tumour-bearing, pancreas", "conditions": "2 h", "tissue uptake": "0.29 ± 0.05 %ID/g"}
{"SMILES": "Cc1cc(C)n(CCN(CCN)CCCCCCNC(=O)[C@@H](N)Cc2c[nH]c3ccccc23)n1.[99Tc+].[C-]#[O+].[C-]#[O+].[C-]#[O+]", "system": "BALB/c nude mice, A549 xenograft, spleen", "conditions": "intravenous, 4 h", "tissue uptake": "1 ± 0.35 %IA/g"}
